Published values from different studies.
A part holds a random share of what one study measured. Changes are numbered by the printed parent chain.

Sample 1 — technique: RNA Bind-n-Seq; form: RNA; medium: in vitro; tested at: not given; relative to: input RNA pool; reading: higher = stronger binding
Target: RING finger protein unkempt homolog, zinc fingers 1-6, GST-SBP tag (UNK, Homo sapiens, UniProt Q9C0B0, residues 30-357)
Chain of UniProt Q9C0B0 (30-357, looked up): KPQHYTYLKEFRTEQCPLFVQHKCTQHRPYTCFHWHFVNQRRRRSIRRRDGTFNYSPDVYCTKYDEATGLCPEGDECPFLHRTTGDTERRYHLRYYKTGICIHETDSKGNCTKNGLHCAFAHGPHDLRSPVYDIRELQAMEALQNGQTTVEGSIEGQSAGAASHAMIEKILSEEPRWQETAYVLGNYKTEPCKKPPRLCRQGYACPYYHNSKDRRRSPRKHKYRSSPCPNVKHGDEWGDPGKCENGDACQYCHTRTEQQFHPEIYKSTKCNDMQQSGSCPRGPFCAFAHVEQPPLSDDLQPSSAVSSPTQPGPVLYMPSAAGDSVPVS
Setting: RNA with constant flanks, human and mouse sites, ends assumed
Constant ends, left off below: GGGAGUUCUACAGUCCGACGAUC … CAACAGAGGAUUGAGCAUCA
Strand	bound/input enrichment
AGAAUUGAAGUGGGAGACGUGAAUCCUUCUCAAACACAGUAUAUUUCUGAACCUAGUCUCUGUCCAGAUUGCAGAGAAGGUCUGCUGUGCCAGCAGCAGAGGGACCUUCGAGAGUAUACC	0.122 ratio
CCGCCACGUCCUGCUUCAGGAGGAGGUGGCCGAGCUGCAGGGCCAGGUCCAGCGCACCGAAGUGGCCCGCGGGCGGCUGGAAAAGCGCAAUUCGGACCUCUUGCUGUUGGUGGACACGCA	0.126 ratio
CGGAGGGUCAUUAGCUUUGGCUCAAGAUCCUACAGAAGAUGAAGAAAUAGUGGAAGAUUCAAUAAUUGAAGAUGAAGAUGAUGAAGCUGAAGUAGAAGAAGAUGAACCCACAGAUUUGGC	0.474 ratio
UGCCUCUAAGGCUGGGCUCUGCCUCAGAGGAGUUUAUUUUCUUUUUUUCUAUAAAGUUUAAAUAGUCUUUUGAGUGAAUUUUCUGGUCAUUGCCUAUACAAAUAAAUGUAAGAAAUCUGG	0.987 ratio
CAUUUCACAACUAGAUUGUAUAAGGAUAUUAGCUGUGAUGAGACUCACUGCAUUAUUUUUUUUAGUGAAUUUUAUGAAAUCCCCGUUCCAUUCAACAGGCACAUGUUUAAAAGAGCUUUG	1.79 ratio
AUGACAUUAGUGAAAGCAUCAAAGAGCUUCAGUUUUACCGAAAUAACAUCUUCAAGAAAAAAAUAGAUGAAAAGAAGAGGAAAAUUAUAGAAAAUGGGGAAAAUGAGAAGACCGUGAGUU	3.7 ratio
AGUAGAGAGAUAACAAAAGCUGCUCAGAGUCUCAAUGAACUUGAUUAUCUUUCUCAAGGAAUAGAUCUUUCUGGAAUAGAAGUGAUAGAAAAUGAUCUACUUUUUAUUGCAAGAGCCCGA	0.193 ratio
AGUGGGGGCUCAGGAGCCAAGCCCUCAGACACAGCAUCGGAAGCUACUCGUCCAGCUACCUUGAAUCGCUUUUCUGCUCUUCAACAAACAUUACCCGCAGAGAACACAGAUAACAGACGU	0.164 ratio
UCUUGAGGAGAGUACAGAUGGGGAGGAAGGUUCCAGACUCUCCUCUCACUUUUUUUUUCCUCUCCUAUUCCAACACUUCCUGCUGGGAGAUCUCCACGCCUAUUUUCACCAUUCUCAGGC	0.244 ratio
UCCCUUUAUCCACAGUUUAUGUUUCAUUUAAGAAGAUCUUCUUUCCUGCAAGUUUUUAACAAUAGUCCUGAUGAGAGUUCAUAUUAUCGUCACCAUUUUAUGCGUCAAGAUCUGACCCAG	2.25 ratio
ACCACGCUCAACCUCUUUCCGCAGGUGCCGCGGUCUCAGGACACACUGAAUAAUAAUUCUCUGGGCAAAAAGCACAGUUGGCAGGAUCGGGUGUCUCGAUCAUCCUCACCCCUGAAGACA	0.37 ratio

Sample 2 — technique: protein binding microarray; form: double-stranded DNA, one strand shown; medium: in vitro; tested at: not given; relative to: not given; reading: higher = stronger binding
Target: Histone acetyltransferase KAT6A, both winged helices, GST fusion (KAT6A, Homo sapiens, UniProt Q92794, residues 1-181)
Setting: 8-mer, flanks averaged, mean of 2 arrays, mostly near background
Residues (chain): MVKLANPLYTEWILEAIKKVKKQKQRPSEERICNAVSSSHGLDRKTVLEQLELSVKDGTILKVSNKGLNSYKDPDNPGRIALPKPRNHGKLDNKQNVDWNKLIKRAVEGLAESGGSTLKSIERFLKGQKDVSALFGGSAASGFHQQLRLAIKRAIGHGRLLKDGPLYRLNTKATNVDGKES
Strand	E-score
CCTCACAA	0.0152
CTATCCCA	-0.196
CGCAAAAC	0.275
AATTAGTG	-0.0641
ATAGAGAA	-0.186
GAGCGAAA	0.103
CGAAAGAG	-0.114
CCGCGTTC	0.319
GTCCCCGA	0.0488
AGTCTCAG	-0.204
ATACCATA	-0.0561
CAGTCAGC	-0.0531
ATATCACC	0.0839
ACAAGAAT	-0.0967
TACCATAA	-0.08
GAAATCTC	-0.0143
AATAGGCA	-0.0736
AGCGGTGA	0.204
GATCCGGA	0.0767
ACCCACAT	-0.14
AGATCGAA	-0.0541
TCGCGTCA	0.179
CTACGTCC	0.00721
CAAGAATG	-0.158
GACAACCC	-0.0188

Sample 3 — technique: DHFR PCA, deep sequencing; medium: yeast; added: (+)-ABA 1.4 µM; relative to: wild-type fitted maximum; reading: higher = stronger binding
Target: ABI1, truncated, D143A, DHFR fusion (Arabidopsis thaliana)
Setting: methotrexate growth selection, single substitutions
Parent: PYL1, truncated, DHFR fusion (Arabidopsis thaliana); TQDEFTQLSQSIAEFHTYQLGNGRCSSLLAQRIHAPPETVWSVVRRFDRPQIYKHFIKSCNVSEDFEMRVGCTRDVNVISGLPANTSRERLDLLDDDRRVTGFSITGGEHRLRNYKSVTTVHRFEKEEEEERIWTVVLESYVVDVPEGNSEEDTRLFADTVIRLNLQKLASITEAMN; partner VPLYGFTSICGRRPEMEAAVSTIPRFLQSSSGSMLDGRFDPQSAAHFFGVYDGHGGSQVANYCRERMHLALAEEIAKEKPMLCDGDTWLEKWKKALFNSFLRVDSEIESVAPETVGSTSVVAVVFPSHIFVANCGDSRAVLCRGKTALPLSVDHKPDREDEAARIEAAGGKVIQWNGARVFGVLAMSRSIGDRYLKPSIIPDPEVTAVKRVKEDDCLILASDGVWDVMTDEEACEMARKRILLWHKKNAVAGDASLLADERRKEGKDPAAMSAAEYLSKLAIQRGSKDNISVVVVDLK
Substitution	relative binding score [%]
R74V	-5.17
I57T	-11.1
V78P	-2.88
E147S	34.2
N77Y	62.7
R111C	7.15
N61R	71.4
K54P	2.36
K54W	-7.89
L91H	1.49
M176S	34.4
L112H	-21.9
N77C	65.8
V100P	-7.44
E131H	77.4
T154Y	-35
P83I	0.654
E174S	7.63
N114Q	6.4
T119Q	16.3
R49A	50.9

Sample 4 — target: CCNB1, cyclin fold, Cln2 fusion (human); technique: yeast growth competition, sequencing; medium: yeast; setting: weak parent motif; relative to: not given; reading: higher = stronger binding
Parent: AKAP12 docking peptide (human); GSPLKKLFTSTGL
Substitution	normalised enrichment score
GSPLKALFTSTGL [K6A]	-0.56
GSPLAKAFTSTGL [K5A L7A]	-0.577
GSPLKKLLTSTGL [F8L]	-0.217
ASPLKKLFTSTGL [G1A]	-0.641
GAPLKKLFTSTGL [S2A]	0.842
GSPLAKLFTSTGL [K5A]	-1.02
GSPLKKLFTSAGL [T11A]	-0.973
GSPLRKLLTSTGL [K5R F8L]	0.163
GSALKKLFTSTGL [P3A]	1.01
GSPLKKAFTSTGL [L7A]	-0.451

Sample 5 — technique: universal PBM; form: double-stranded DNA, one strand shown; medium: in vitro; tested at: 600 nM; reading: higher = stronger binding
Target: Sal-like protein 4, full length isoform A (SALL4, Homo sapiens, UniProt Q9UJQ4, residues 1-1053)
Chain of UniProt Q9UJQ4 (whole entry, looked up): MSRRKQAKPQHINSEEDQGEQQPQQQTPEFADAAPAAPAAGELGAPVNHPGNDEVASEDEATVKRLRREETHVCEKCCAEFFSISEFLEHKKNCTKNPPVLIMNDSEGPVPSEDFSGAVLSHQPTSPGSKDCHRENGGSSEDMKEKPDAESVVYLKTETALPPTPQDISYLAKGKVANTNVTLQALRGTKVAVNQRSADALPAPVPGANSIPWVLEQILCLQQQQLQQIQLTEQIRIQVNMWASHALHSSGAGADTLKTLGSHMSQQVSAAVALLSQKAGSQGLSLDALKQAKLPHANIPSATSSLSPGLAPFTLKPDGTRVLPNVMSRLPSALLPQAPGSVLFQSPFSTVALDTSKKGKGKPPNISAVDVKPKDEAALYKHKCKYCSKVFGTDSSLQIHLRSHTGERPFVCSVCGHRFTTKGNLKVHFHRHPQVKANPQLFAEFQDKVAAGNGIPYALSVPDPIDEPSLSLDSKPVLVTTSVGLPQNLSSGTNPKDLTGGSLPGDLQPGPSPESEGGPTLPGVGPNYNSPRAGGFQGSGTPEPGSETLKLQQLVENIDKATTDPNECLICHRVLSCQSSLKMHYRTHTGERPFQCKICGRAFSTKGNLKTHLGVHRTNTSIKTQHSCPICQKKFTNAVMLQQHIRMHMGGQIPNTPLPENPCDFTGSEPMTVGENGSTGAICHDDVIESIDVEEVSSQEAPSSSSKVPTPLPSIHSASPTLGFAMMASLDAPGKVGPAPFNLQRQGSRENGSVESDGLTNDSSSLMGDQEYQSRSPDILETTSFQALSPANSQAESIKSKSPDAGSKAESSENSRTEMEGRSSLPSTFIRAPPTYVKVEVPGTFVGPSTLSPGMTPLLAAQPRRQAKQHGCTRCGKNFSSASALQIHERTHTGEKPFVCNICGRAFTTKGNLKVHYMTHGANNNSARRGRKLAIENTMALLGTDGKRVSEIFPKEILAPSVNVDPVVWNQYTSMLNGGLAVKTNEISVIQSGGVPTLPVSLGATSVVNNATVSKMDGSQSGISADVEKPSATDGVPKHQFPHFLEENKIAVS
Setting: 8-mer, flanks averaged, mean of replicates
Strand	E-score
ACGCAATG	0.0158
AGAACTAA	0.0939
GCCATCGA	-0.15
ACCGGAAA	0.0384
AATACCGT	0.0852
ACCGGGGG	-0.383
AGCCCATG	-0.16
AAAAACCA	0.241
CGTTTACA	0.146
CATGACGA	-0.124
GTGTCAAA	0.108
ACGGGTCG	-0.2
CTCCCCGA	-0.303
TACCCTCA	-0.132
CCAGAATA	0.136
CCCTGATA	0.049
CTTGCAGA	-0.0747
CCCTAACG	0.0401
ATGAACAA	0.268
ACCGCCGT	-0.241
GCCGAGAA	-0.177
TAGGGCCA	-0.2
CGACAAAC	-0.105

Sample 6 — target: CEP164, C-terminal peptide (human); technique: DHFR complementation, deep sequencing; medium: yeast; relative to: wild type; reading: higher = weaker binding
Setting: single substitutions, model-inferred values
Parent: PDZK1, PDZ domain 2 (human); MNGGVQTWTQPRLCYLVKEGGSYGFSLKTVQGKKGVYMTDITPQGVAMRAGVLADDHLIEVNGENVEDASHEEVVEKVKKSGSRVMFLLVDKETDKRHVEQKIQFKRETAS; partner HNRVKVYRF
Substitution	binding free energy change
G63T	0.41 kcal/mol
F87R	1.7 kcal/mol
H71K	1.98 kcal/mol
E64L	0.164 kcal/mol
Q104D	-0.153 kcal/mol
Q10G	-0.181 kcal/mol
Q6F	0.0397 kcal/mol
D55Q	0.582 kcal/mol
V5Y	0.073 kcal/mol
H98Q	0.055 kcal/mol
G45L	1.16 kcal/mol
V90Q	-0.189 kcal/mol
V85T	0.981 kcal/mol

Mixed results
Molecule	target	test	test system	setting	how to read	measurement	value
PhoQ, residues 284 288 289 292 302 303 TAVSDG	PhoP, residues 12 14 15 18 19 TPWLV (Escherichia coli, UniProt P23836)	Sort-seq, refers to: YFP reporter	E. coli	PhoQ-PhoP variant library, added: 10 µM Mg2+	relative to: high Mg2+ state, higher = stronger signaling	fold induction	3.63

Repeated from above (sample 5):
Strand	E-score
ACCGGGGG	-0.383
AGCCCATG	-0.16
CGACAAAC	-0.105
AGAACTAA	0.0939
TAGGGCCA	-0.2
TACCCTCA	-0.132
ACCGGAAA	0.0384
GCCGAGAA	-0.177
